Assay results of several laboratories.
Numbered parts are unrelated; each lists some results of a single study. Positions count from the first letter of the parent shown.

Set 1
Target: vanadate, free oxyanion
Method: microfluidic competitive inhibition
Medium: in vitro, cell-free expressed
Concentration: not given
Notes: derived from inhibition constants, unchanged parent 676 nM
Reading: lower = stronger binding
Quantity: oxyanion analog dissociation constant
Parent: PafA, mature enzyme, eGFP fusion (Elizabethkingia meningoseptica, UniProt Q9KJX5); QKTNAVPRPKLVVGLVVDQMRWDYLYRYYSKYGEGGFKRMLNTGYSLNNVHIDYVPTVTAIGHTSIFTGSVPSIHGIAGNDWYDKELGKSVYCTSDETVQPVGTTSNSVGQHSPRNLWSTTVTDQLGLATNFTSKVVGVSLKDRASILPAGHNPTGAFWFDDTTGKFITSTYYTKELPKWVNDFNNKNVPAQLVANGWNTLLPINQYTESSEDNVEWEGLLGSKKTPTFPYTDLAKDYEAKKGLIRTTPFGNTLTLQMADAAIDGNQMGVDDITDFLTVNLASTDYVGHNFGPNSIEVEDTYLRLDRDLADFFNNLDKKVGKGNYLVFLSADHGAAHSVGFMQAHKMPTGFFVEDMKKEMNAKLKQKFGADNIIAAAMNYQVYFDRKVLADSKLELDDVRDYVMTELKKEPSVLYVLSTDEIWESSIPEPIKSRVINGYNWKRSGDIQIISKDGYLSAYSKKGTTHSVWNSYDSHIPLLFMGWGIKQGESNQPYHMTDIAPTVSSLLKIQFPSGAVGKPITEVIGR
I245G: 0.611 µM
T57V: 0.369 µM
K31V: 0.716 µM
F511V: 0.882 µM
D446V: 0.934 µM
W180G: 2.49 µM
R443G: 2.73 µM
D420V: 0.721 µM

Set 2
Target: UDP-N-acetylglucosamine--peptide N-acetylglucosaminyltransferase 110 kDa subunit (OGT, Homo sapiens, UniProt O15294)
Sequence of UniProt O15294 (whole entry, looked up): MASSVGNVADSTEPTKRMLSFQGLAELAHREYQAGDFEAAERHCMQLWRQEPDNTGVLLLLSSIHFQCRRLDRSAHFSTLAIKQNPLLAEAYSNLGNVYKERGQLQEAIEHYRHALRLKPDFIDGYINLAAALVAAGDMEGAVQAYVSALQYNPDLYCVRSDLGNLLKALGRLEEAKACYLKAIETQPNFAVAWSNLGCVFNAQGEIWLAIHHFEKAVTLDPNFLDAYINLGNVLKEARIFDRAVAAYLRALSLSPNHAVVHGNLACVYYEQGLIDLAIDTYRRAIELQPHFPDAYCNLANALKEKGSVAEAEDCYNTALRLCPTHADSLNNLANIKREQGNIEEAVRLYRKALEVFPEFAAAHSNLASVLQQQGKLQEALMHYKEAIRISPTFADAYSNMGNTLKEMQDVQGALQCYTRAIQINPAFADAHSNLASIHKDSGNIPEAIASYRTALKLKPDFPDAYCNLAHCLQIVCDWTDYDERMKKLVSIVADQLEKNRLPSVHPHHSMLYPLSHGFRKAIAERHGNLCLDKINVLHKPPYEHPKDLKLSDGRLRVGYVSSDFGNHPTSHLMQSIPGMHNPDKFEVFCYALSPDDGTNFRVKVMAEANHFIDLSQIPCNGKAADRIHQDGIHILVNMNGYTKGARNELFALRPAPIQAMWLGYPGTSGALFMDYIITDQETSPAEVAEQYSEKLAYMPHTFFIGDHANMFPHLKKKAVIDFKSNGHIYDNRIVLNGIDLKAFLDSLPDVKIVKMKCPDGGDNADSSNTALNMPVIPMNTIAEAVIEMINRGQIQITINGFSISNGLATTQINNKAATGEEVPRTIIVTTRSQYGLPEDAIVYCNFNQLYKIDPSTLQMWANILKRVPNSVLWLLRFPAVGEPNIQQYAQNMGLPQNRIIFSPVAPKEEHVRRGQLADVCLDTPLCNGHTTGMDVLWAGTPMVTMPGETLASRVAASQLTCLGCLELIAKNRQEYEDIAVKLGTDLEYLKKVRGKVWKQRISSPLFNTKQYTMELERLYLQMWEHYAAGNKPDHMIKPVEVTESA
Observed: binding
Method: phage display NGS
Molecule type: peptide
Concentration: concentration not given
Baseline: input library
Quantity: enrichment fold change
IVTGRHPHTTQHYTH: 5.31
HNYHNHRVQMEYRGE: 5.71
FLPQYKIEVPFSVYK: 1.89
AFVPPWAPMYQIVMG: 2.47
KFMPVYQIIAEMGAF: 1.65
HTYHHLLHAEDGHSY: 14.8

Set 3
Target: TAR DNA-binding protein 43, full length, His tag (TARDBP, Homo sapiens, UniProt Q13148, residues 1-414)
Method: RNA Bind-n-Seq
Molecule type: RNA
Medium: in vitro
Concentration: 20 nM
Notes: 6-mer, flanks averaged, single round
Together with: 150 mM LiCl
Baseline: input library
Reading: higher = stronger binding
Quantity: 6-mer enrichment (R)
UUGUGC: 1.16
GGGCGC: 1.13
CACCUG: 0.896
GCGUUC: 0.917
UCAUAG: 0.844
AUUUAU: 1.11
CGGCAC: 0.918
GGAUCG: 1.09

Single results of other studies
Method: yeast growth competition, sequencing
Medium: yeast
Baseline: not given
Reading: higher = stronger binding
CCNE1: CCNE1, cyclin fold, Cln2 fusion (human)
P1: viral docking peptide; PTARRRLLHDLDT; partner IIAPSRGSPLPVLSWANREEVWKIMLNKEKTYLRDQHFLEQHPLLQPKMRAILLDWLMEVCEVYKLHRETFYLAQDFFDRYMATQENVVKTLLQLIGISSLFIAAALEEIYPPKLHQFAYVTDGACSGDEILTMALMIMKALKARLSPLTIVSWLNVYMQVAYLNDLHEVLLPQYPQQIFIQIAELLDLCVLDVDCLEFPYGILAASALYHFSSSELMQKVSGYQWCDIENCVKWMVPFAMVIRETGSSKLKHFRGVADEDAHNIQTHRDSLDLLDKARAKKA
P2: viral docking peptide; PTARRRLLHDLDT; partner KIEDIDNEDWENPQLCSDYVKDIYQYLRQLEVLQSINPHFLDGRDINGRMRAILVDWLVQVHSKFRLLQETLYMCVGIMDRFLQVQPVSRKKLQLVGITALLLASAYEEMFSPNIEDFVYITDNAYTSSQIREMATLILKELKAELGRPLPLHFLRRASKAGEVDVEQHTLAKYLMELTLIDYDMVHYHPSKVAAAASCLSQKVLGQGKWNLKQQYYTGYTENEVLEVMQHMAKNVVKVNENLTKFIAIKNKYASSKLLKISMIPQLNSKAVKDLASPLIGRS
P1 L7A — normalised enrichment score (CCNE1; strong parent motif): -0.191
P2 R5K L8F — normalised enrichment score (CCNB2, cyclin fold, Cln2 fusion (human); weak parent motif): 0.343
P1 H9A — normalised enrichment score (CCNE1; strong parent motif): 1.84
